Results from different studies.
Numbered parts are unrelated; each lists some results of a single study. Positions count from the first letter of the parent shown.

Sample 1
Target: Histone acetyltransferase KAT6A, winged helix 2, GST fusion (KAT6A, Homo sapiens, UniProt Q92794, residues 85-181)
Technique: protein binding microarray
Molecule type: double-stranded DNA, one strand shown
Medium: in vitro
Tested at: not given
Notes: 8-mer, flanks averaged, mean of 2 arrays, mostly near background
Baseline: not given
Reading: higher = stronger binding
Construct (chain): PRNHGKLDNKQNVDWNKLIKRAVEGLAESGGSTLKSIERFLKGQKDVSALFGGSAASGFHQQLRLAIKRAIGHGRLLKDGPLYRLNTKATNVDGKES
`CCCGGCCG` has an E-score of 0.228.
`GCATGGGA` gave an E-score of -0.125.
`TAGGGCAA` has an E-score of -0.0992.
`GAGCAGAA` gave an E-score of 0.0948.
The E-score of `GGAGCCAC` is reported as 0.0317.
The E-score of `GTATTACA` is reported as -0.105.
`GCCCTGAC` gave an E-score of -0.0648.
For `TATGGCAA`, the E-score was 0.0292.
`TAGATGAA` gave an E-score of 0.0993.
With `CATTCAAA` the E-score was 0.124.
The E-score of `AGCGAGGC` is reported as 0.0949.
The E-score of `ACGTCGAA` is reported as -0.00781.
`CACCCCCG` gave an E-score of -0.0423.
For `AAAATTGA`, the E-score was -0.0932.
`ACTACTTA` gave an E-score of -0.175.
For `CTGGGAAC`, the E-score was 0.107.
With `AAATAGTT` the E-score was -0.127.
With `ATGAGCAG` the E-score was 0.22.
The E-score of `ATCGTATA` is reported as -0.0177.
For `CTAGCAAG`, the E-score was -0.136.
The E-score of `CCAGCAAA` is reported as 0.147.
`ATGTAGGA` gave an E-score of -0.188.

Sample 2
Target: DBP, bZIP domain (human)
Technique: DHFR protein complementation
Medium: yeast
Notes: single substitutions, most at no-binding floor
Baseline: wild-type JUN-FOS pair
Reading: higher = stronger binding
Parent: JUN, bZIP domain (human); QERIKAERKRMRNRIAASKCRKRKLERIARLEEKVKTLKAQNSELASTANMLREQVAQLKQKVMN; partner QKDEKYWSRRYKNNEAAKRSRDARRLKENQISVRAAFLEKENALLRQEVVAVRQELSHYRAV
For `S43G`, the binding fitness was -1.31 natural log.
The binding fitness of `S43P` is reported as -1.46 natural log.
The binding fitness of `A46K` is reported as -1.49 natural log.
The binding fitness of `N42F` is reported as -1.5 natural log.
The binding fitness of `A46V` is reported as -1.36 natural log.
`T48N` gave a binding fitness of -1.23 natural log.
`A46W` has a binding fitness of -1.27 natural log.
For `A46C`, the binding fitness was -1.51 natural log.
With `K39G` the binding fitness was -1.47 natural log.
`K39P` has a binding fitness of -1.51 natural log.
For `E33C`, the binding fitness was -1.39 natural log.
`N42D` has a binding fitness of -1.56 natural log.
`V35R` gave a binding fitness of -1.43 natural log.
With `N42P` the binding fitness was -1.52 natural log.
For `A49H`, the binding fitness was -1.5 natural log.
With `T48C` the binding fitness was -1.45 natural log.
With `Q55W` the binding fitness was -1.29 natural log.
`A29W` gave a binding fitness of -1.52 natural log.
The binding fitness of `A29S` is reported as -1.44 natural log.
For `E54F`, the binding fitness was -1.56 natural log.
`S47Y` gave a binding fitness of -1.24 natural log.

Sample 3
Target: Prothrombin, mature alpha-thrombin (F2, Homo sapiens, UniProt P00734)
Technique: aptamer microarray, sandwich
Molecule type: DNA with 2'F-ANA
Medium: in vitro
Tested at: 200 nM
Notes: whole 15-mer aptamer, many near background
Added: Cy3 exosite-II aptamer, 400 nM
Reading: higher = stronger binding
Sequence: GGTTGGTGTGGTTGG
For `2'F-ANA at 1 2 3 4 12 13 14 15`, “mean fluorescence intensity” read 72.8 a.u.
`2'F-ANA at 2 3 5 8 9 10 11 12 13 14 15`: “mean fluorescence intensity” 50.2 a.u.
Under “mean fluorescence intensity”, `2'F-ANA at 3 4 8 10 12 14` is recorded as 207 a.u.
For `2'F-ANA at 4 7 8 11 12`, “mean fluorescence intensity” read 611 a.u.
`2'F-ANA at 4 6 7 8 11 12`: “mean fluorescence intensity” 459 a.u.
`2'F-ANA at 4 5 6 8 9 11 12 14` — result for “mean fluorescence intensity”: 44.8 a.u.
`2'F-ANA at 1 3 5 6 9 10 12 13 15` — result for “mean fluorescence intensity”: 50.4 a.u.
`2'F-ANA at 2 8 9 12 14 15` — result for “mean fluorescence intensity”: 186 a.u.
For `2'F-ANA at 1 4 6 8 10 11 13 14`, “mean fluorescence intensity” read 60.4 a.u.
`2'F-ANA at 4 6 7 8 9 10 11 12 13 14`: “mean fluorescence intensity” 58.7 a.u.
Under “mean fluorescence intensity”, `2'F-ANA at 3 4 6 7 8 9 13 14 15` is recorded as 212 a.u.
For `2'F-ANA at 1 2 5 7 9 10 11 12 13`, “mean fluorescence intensity” read 45.8 a.u.
For `2'F-ANA at 2 5 7 8 11 12 15`, “mean fluorescence intensity” read 123 a.u.
For `2'F-ANA at 1 2 3 4 5 7 9 11 12 14`, “mean fluorescence intensity” read 48.1 a.u.
Under “mean fluorescence intensity”, `2'F-ANA at 1 2 3 4 5 10 12 13 14` is recorded as 60 a.u.
Under “mean fluorescence intensity”, `2'F-ANA at 1 5 8 12 13 14 15` is recorded as 46.4 a.u.
Under “mean fluorescence intensity”, `2'F-ANA at 1 3 8 9 10 11 13 14` is recorded as 56.5 a.u.

Sample 4
Target: ABI1, truncated, D143A, DHFR fusion (Arabidopsis thaliana)
Technique: DHFR PCA, deep sequencing
Medium: yeast
Notes: methotrexate growth selection, single substitutions
Added: (+)-ABA 710 µM
Baseline: wild-type fitted maximum
Reading: higher = stronger binding
Parent: PYL1, truncated, DHFR fusion (Arabidopsis thaliana); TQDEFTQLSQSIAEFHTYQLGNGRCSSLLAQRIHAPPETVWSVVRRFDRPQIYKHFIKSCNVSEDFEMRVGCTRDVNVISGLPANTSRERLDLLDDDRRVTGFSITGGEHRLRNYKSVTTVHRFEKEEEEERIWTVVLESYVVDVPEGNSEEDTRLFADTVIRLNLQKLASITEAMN
Under “relative binding score”, `T173Q` is recorded as 68.2%.
`V43A`: “relative binding score” 88%.
For `W41A`, “relative binding score” read -8.18%.
Under “relative binding score”, `F124Q` is recorded as 107%.
`R155K` — result for “relative binding score”: 99.5%.
`R111H`: “relative binding score” 70.1%.
`V76A`: “relative binding score” 72.5%.
Under “relative binding score”, `F66D` is recorded as 96.1%.
`M68S`: “relative binding score” 88.1%.
`T86C`: “relative binding score” 103%.
`R49V` — result for “relative binding score”: 89.9%.
`W134F`: “relative binding score” 110%.
For `T160S`, “relative binding score” read 91.9%.
`I12A` — result for “relative binding score”: 75.2%.
For `F157W`, “relative binding score” read 38.9%.
For `D95A`, “relative binding score” read 74.1%.
For `E128D`, “relative binding score” read 111%.
Under “relative binding score”, `H55D` is recorded as 104%.
`T119M`: “relative binding score” 101%.
`T106A` — result for “relative binding score”: 89.5%.
For `T17Y`, “relative binding score” read 100%.
`Y115C` — result for “relative binding score”: 15.8%.
`A35R`: “relative binding score” 65%.
For `Y141M`, “relative binding score” read 46%.

Sample 5
Target: CCNA1, cyclin fold, Cln2 fusion (human)
Technique: yeast growth competition, sequencing
Medium: yeast
Notes: weak parent motif
Baseline: not given
Reading: higher = stronger binding
Parent: PKMYT1 docking peptide (human); SFEPRNLLSLFED; partner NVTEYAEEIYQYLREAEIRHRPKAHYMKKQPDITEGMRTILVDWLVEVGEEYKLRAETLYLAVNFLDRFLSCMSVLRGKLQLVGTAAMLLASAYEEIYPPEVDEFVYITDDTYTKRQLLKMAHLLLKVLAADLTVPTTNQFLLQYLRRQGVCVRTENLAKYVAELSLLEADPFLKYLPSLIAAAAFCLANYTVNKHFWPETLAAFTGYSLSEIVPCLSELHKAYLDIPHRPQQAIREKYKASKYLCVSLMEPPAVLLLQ
`F11I`: “normalised enrichment score” 0.233.
`D13C`: “normalised enrichment score” -0.00784.
`L10V` — result for “normalised enrichment score”: 0.242.
For `S1N`, “normalised enrichment score” read 0.308.
Under “normalised enrichment score”, `R5V` is recorded as 0.0418.
Under “normalised enrichment score”, `N6G` is recorded as 0.423.
`P4M`: “normalised enrichment score” 0.298.
For `L7I`, “normalised enrichment score” read 0.0921.
`E12H` — result for “normalised enrichment score”: 0.0284.
`R5N` — result for “normalised enrichment score”: 0.0186.
For `E3N`, “normalised enrichment score” read 0.251.
Under “normalised enrichment score”, `E3V` is recorded as 0.239.
Under “normalised enrichment score”, `S9R` is recorded as 0.247.
Under “normalised enrichment score”, `E12M` is recorded as -0.234.
Under “normalised enrichment score”, `S9D` is recorded as 0.268.
For `P4F`, “normalised enrichment score” read 0.0748.
Under “normalised enrichment score”, `L8I` is recorded as 0.141.

Sample 6
Target: PABPC1L2, full length, GST fusion (mouse, UniProt A0ABA7IW68)
Technique: RNAcompete
Molecule type: RNA
Medium: in vitro
Tested at: 20 nM
Notes: 7-mer, probes averaged, single round
Baseline: mean of 7-mers
Reading: higher = stronger binding
Construct (chain): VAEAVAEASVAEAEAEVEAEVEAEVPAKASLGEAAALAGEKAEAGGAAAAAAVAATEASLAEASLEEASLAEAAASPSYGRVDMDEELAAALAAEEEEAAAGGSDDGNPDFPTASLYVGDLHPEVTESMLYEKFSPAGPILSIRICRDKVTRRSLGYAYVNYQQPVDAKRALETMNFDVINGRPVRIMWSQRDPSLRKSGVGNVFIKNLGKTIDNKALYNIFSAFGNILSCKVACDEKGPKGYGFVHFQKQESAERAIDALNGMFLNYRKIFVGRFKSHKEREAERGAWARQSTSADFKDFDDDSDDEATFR
`UCACGUU` has a 7-mer Z-score of -0.311.
With `AUCGGAG` the 7-mer Z-score was 0.184.
`GUAGACG` has a 7-mer Z-score of -0.0609.
With `GAGGACC` the 7-mer Z-score was 0.258.
The 7-mer Z-score of `CUCGCGG` is reported as -0.269.
`GUCUUUA` has a 7-mer Z-score of -0.148.
With `GGAAUUA` the 7-mer Z-score was -0.0047.
`GGAAUAU` has a 7-mer Z-score of -0.0446.
With `UUUAUGG` the 7-mer Z-score was 0.218.
With `AGUGACG` the 7-mer Z-score was 0.113.
The 7-mer Z-score of `GUGUACU` is reported as -0.22.
`GACACAU` has a 7-mer Z-score of -0.0518.
For `CCCUACC`, the 7-mer Z-score was -0.44.
The 7-mer Z-score of `GGGUCAC` is reported as 0.285.

Sample 7
Target: TAR DNA-binding protein 43, full length, His tag (TARDBP, Homo sapiens, UniProt Q13148, residues 1-414)
Technique: RNA Bind-n-Seq
Molecule type: RNA
Medium: in vitro
Tested at: 20 nM
Notes: 6-mer, flanks averaged, single round
Added: 150 mM LiCl
Baseline: input library
Reading: higher = stronger binding
`CUUAGG`: “6-mer enrichment (R)” 0.872.
`GGAUUU` — result for “6-mer enrichment (R)”: 0.963.
Under “6-mer enrichment (R)”, `GCAGGG` is recorded as 1.19.
For `CCCUAC`, “6-mer enrichment (R)” read 1.01.
Under “6-mer enrichment (R)”, `AAACAU` is recorded as 0.821.
`UGCCUC` — result for “6-mer enrichment (R)”: 0.963.
`CGGAAA`: “6-mer enrichment (R)” 0.873.
Under “6-mer enrichment (R)”, `UCAGCC` is recorded as 0.876.
Under “6-mer enrichment (R)”, `GGGACU` is recorded as 1.09.
`CUUACA`: “6-mer enrichment (R)” 0.868.
`CCCAAC` — result for “6-mer enrichment (R)”: 0.938.
For `UAAUGC`, “6-mer enrichment (R)” read 0.921.

For quick reference, copied from above (sample 1):
`CCCGGCCG` has an E-score of 0.228.
With `ATGAGCAG` the E-score was 0.22.
The E-score of `ATCGTATA` is reported as -0.0177.
`CACCCCCG` gave an E-score of -0.0423.
`GCCCTGAC` gave an E-score of -0.0648.
`TAGGGCAA` has an E-score of -0.0992.
The E-score of `AGCGAGGC` is reported as 0.0949.
`GAGCAGAA` gave an E-score of 0.0948.
`ATGTAGGA` gave an E-score of -0.188.
For `CTGGGAAC`, the E-score was 0.107.
The E-score of `CCAGCAAA` is reported as 0.147.
`GCATGGGA` gave an E-score of -0.125.
`ACTACTTA` gave an E-score of -0.175.
